Measured values of several laboratories.
Parts stem from different laboratories: compare values within a part only. Substitutions count along the parent as printed.

Series 1 — method: DHFR PCA, deep sequencing; sample: yeast; together with: (+)-ABA 1.4 µM; relative to: wild-type fitted maximum; reading: higher = stronger binding; measurement: relative binding score
Target: ABI1, truncated, D143A, DHFR fusion (Arabidopsis thaliana)
Setting: methotrexate growth selection, single substitutions
Starting sequence: PYL1, truncated, DHFR fusion (Arabidopsis thaliana); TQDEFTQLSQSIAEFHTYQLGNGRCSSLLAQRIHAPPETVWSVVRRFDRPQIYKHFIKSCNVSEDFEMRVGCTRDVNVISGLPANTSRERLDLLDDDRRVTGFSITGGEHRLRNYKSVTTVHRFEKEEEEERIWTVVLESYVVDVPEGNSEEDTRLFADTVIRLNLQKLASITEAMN
L94C: 13%
N149T: 44.1%
F66P: 8.8%
H122S: 0.347%
E4A: 54.1%
N77L: 46.7%
L93G: -3.22%
K126G: 77.8%

Series 2 — target: CEBPB, bZIP domain (human); method: DHFR protein complementation; sample: yeast; relative to: wild-type JUN-FOS pair; reading: higher = stronger binding; measurement: binding fitness
Setting: single substitutions, most at no-binding floor
Starting sequence: JUN, bZIP domain (human); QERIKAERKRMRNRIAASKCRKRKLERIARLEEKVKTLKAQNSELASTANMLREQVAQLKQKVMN; partner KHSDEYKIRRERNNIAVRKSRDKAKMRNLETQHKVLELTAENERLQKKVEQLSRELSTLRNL
E54D: -1.04 natural log
A49F: -1.54 natural log
E54V: -1.41 natural log
A57W: -1.47 natural log
R30N: -1.23 natural log
K39Q: -1.29 natural log
E44C: -1.4 natural log
E33P: -1.44 natural log

Series 3 — method: RNA Bind-n-Seq; molecule type: RNA; sample: in vitro; concentration: 20 nM; setting: 6-mer, flanks averaged, single round; together with: 150 mM KCl; relative to: input library; reading: higher = stronger binding; measurement: 6-mer enrichment (R)
Target: TAR DNA-binding protein 43, full length, His tag (TARDBP, Homo sapiens, UniProt Q13148, residues 1-414)
UAUGCU: 0.669
AACUGU: 0.657
GCUCGG: 1.5
GGAAGU: 1.56
GGGCAU: 2.08
CCUGUC: 0.605
CGGAAU: 0.814
GCGCAG: 1.65

Other studies, line by line
EMKEAFHGL — binding (HLA class I histocompatibility antigen, A alpha chain, allele A*80:01 (Homo sapiens, UniProt P04439); peptide-MHC binding; peptide; concentration not given): inactive
